Published values from different studies.
Protocols differ between the studies behind these lines.

Compound	assay	system	conditions	endpoint	value
CN(C)C(=O)c1cc2cnc(Nc3ccc(N4CCNCC4)cn3)nc2n1C1CCCC1	item: Infections, AESI	human, HR+/HER2− advanced breast cancer	oral, dose not given, all grades, CTCAE v4.03	patients with adverse event	57%
O=C1Nc2cc3[nH]nc(-c4ccncc4)c3cc2CN1Cc1ccccc1	CTCAE v4.03	human, relapsed or refractory advanced solid tumours	intravenous, 0.9 mg/kg, pooled schedules	patients with QTc prolongation	0%
N[C@@H]1c2ccccc2OC12CCN(c1cnc3c(N4CCCc5ncccc54)n[nH]c3n1)CC2	item: Diarrhea	human advanced or metastatic solid tumours	oral, 60 mg once daily, phase Ia pooled cohort	patients with treatment-emergent adverse event	64%
C=CC(=O)Nc1cc(Nc2nccc(Nc3cc(Cl)c(F)cc3C(C)(C)O)n2)c(OC)cc1N1CC[C@@H](N(C)C)C1	–	human patients	oral, 100 mg, treatment-emergent adverse events	patients with paronychia	11.1%
COc1ncnn2ccc(-c3cnc4nc(C)n(Cc5nnc([C@@H](C)F)o5)c4c3)c12	–	human	oral, dose not given, grade 3	patients with any adverse reaction	28.6%
COc1ccc(-c2c(-c3ccc(C#N)c(F)c3)nc(N3CCC(N)CC3)n(C)c2=O)cc1F	item: cauda equina syndrome	human patients	oral, 60 mg, dose expansion	patients with serious TEAE	0%
CNC(=O)c1cc(Oc2ccc(NC(=O)Nc3cc(C(C)(C)C)nn3-c3ccc4ncccc4c3)c(F)c2)ccn1	–	human, trial	oral, 150 mg twice daily, starting dose	patients with any related serious AE	35%
Cn1nc(NS(C)(=O)=O)c2c(Cl)ccc(-n3c([C@H](Cc4cc(F)cc(F)c4)NC(=O)Cn4nc(C(F)F)c5c4C(F)(F)[C@@H]4C[C@H]54)nc4nc(OCCC(F)(F)F)ccc4c3=O)c21	item: LDL cholesterol grade 3 increase	human	400 mg once daily, powder in bottle	patients with laboratory abnormality	0%
C[C@@H]1OC(=O)NN=C1c1ccc(-c2ccc(F)cc2)c(C(F)(F)F)c1	phase I trial, item: platelet count decreased	human patients	dose not given, worst grade 3, all doses	patients with TEAE	20%
C[C@]1(O)C[C@@](N)(c2ccc(-c3nc4n(c3-c3ccccc3)COc3ccncc3-4)cc2)C1	–	human, advanced or metastatic solid tumours	16 mg once daily, phase I dose escalation	patients with Anemia TEAE	0%
Cn1cncc1-c1c(F)cncc1NC(=O)c1c(N)nn2cc(F)cnc12	–	human patients	oral, 180 mg once daily, 2 weeks on 1 week off	patients grade ≥3 Platelet count decrease	0%
CN[C@@H](C)C(=O)N[C@H]1CN(S(=O)(=O)c2cccc(S(=O)(=O)N3CC[C@H]4CC[C@@H](C(=O)NC(c5ccccc5)c5ccccc5)N4C(=O)[C@@H](NC(=O)[C@H](C)NC)C3)c2)CC[C@H]2CC[C@@H](C(=O)NC(c3ccccc3)c3ccccc3)N2C1=O	–	human, advanced solid tumours	intravenous, 0.3 mg weekly, CTCAE version 4.0	patients with any TRAE	0%
Cc1cn([C@H]2O[C@@H](CO[P@@](=O)(N[C@@H](C)C(=O)OC(C)C)Oc3ccccc3)[C@H](O)[C@H]2F)c(=O)[nH]c1=O	–	human	oral, 25 mg once daily, 28 days	patients with any TEAE	60%

For quick reference, copied from above:
Compound	assay	system	conditions	endpoint	value
N[C@@H]1c2ccccc2OC12CCN(c1cnc3c(N4CCCc5ncccc54)n[nH]c3n1)CC2	item: Diarrhea	human advanced or metastatic solid tumours	oral, 60 mg once daily, phase Ia pooled cohort	patients with treatment-emergent adverse event	64%
C=CC(=O)Nc1cc(Nc2nccc(Nc3cc(Cl)c(F)cc3C(C)(C)O)n2)c(OC)cc1N1CC[C@@H](N(C)C)C1	–	human patients	oral, 100 mg, treatment-emergent adverse events	patients with paronychia	11.1%
